# Experimental data gathered from unrelated publications.
# Lines come from different studies, so protocols differ.
# Target: Serine/threonine-protein kinase VRK2 (VRK2, Homo sapiens, UniProt Q86Y07)
SMILES,test,system,setting,how to read,endpoint,result
NC(=O)[C@@H](O)C[C@H]1CCc2sc3ncnc(O[C@H]4CC[C@H](N5CCOCC5)CC4)c3c21,"enzyme activity, inhibitor",,10 µM,,inhibition,-4%
COc1c(OCCCN2CCOCC2)ccc2c1N=C(NC(=O)c1cnc(N)nc1)N1CCN=C21,"kinase activity, inhibitor",,1 µM,relative to: untreated control,remaining activity,109%
CN1CC[C@@H](COc2cnc(C#N)cc2-c2ccn3nc(NC(=O)C4CC4)cc3c2)C1,"enzyme activity, inhibitor",,1 µM,,inhibition,-6%
CNC1C[S+]2CC[S+]3CC[S+](C1)[Ru-4]321([N]=C=S)[n]2c3ccc(OC)cc3c3c4c(c5cc(F)c[n+]1c5c32)C(=O)NC4=O (centres unmarked),KinomeScan,,0.1 µM,relative to: untreated,remaining binding,97%
CCN1CCN(Cc2ccc(NC(=O)c3ccc(C)c(NC(=O)c4cncc(-c5cnn(C)c5)c4)c3)cc2C(F)(F)F)CC1,"binding, competition with immobilised ligand",,1 µM,,remaining binding,100%
CN1CCN(Cc2ccc(-c3ccc(CO[C@H]4CCC[C@@H]4NC(=O)c4cc(-c5cnn(C)c5)cnc4N)cc3)cc2)CC1,"enzyme activity, inhibitor",,0.1 µM,,inhibition,11%
Cc1cc(NC(=O)[C@H](O)c2cc(F)cc(F)c2)ccc1-c1cnc(N)c(C(=O)NC(C)C)c1,"binding, competition with immobilised ligand",,10 µM,,remaining binding,4.2%
C=CC(=O)Nc1cc(-c2nn(C3CCN(CCNC(=O)[C@H](C)CCC45CC6CC(CC(C6)C4)C5)CC3)c3ncnc(N)c23)ccc1Oc1ccccc1,"inhibitor, KiNativ profiling",biochemical,2 µM,,inhibition,17.9%
COc1c(Cl)cccc1Nc1c(-c2ccncc2C#C[C@@]2(C)CCCN2C(=O)/C=C/CN(C)C)[nH]c2c1C(=O)NCC2,"binding, competition with immobilised ligand",,3 µM,,remaining binding,53%
CC(C)=CC1OC(C)(C)C2C=C3C(=O)C(Cl)=CC(O)C3C3C(O)C4OC4C(=O)C132 (centres unmarked),"cell-free assay, competition with immobilised ligand",,10 µM,,remaining binding,96%
COc1cc(Nc2nccc(-c3cnn4nc(OC)ccc34)n2)cc(C(F)(F)F)c1,"binding, competition with immobilised ligand",,1 µM,,remaining binding,84%
Nc1ncc(-c2cc(-c3cnn(CC(F)(F)F)c3)ncc2F)nc1C(=O)NC1CNCC(F)C1 (centres unmarked),enzyme activity,,1 µM,relative to: DMSO control,remaining activity,92%
CCN1CCN(Cc2ccc(C(=O)Nc3ccc(C)c(NCc4cnc5[nH]ccc5c4OC)c3)cc2C(F)(F)F)CC1,"binding, competition with immobilised ligand",,1 µM,,remaining binding,75%
CNC(=O)C1CCN(c2cc(C)c(F)cc2NC(=O)c2ccc(-c3cc(O)ccc3C)c(C)c2)CC1,"binding, competition with immobilised ligand",,1 µM,,remaining binding,66%

# Some of these lines once more:
SMILES,test,system,setting,how to read,endpoint,result
COc1c(Cl)cccc1Nc1c(-c2ccncc2C#C[C@@]2(C)CCCN2C(=O)/C=C/CN(C)C)[nH]c2c1C(=O)NCC2,"binding, competition with immobilised ligand",,3 µM,,remaining binding,53%
CN1CC[C@@H](COc2cnc(C#N)cc2-c2ccn3nc(NC(=O)C4CC4)cc3c2)C1,"enzyme activity, inhibitor",,1 µM,,inhibition,-6%
